Measurements gathered from unrelated publications.
Parts stem from different laboratories: compare values within a part only.

Block 1
Target: Sal-like protein 4, full length isoform A (SALL4, Homo sapiens, UniProt Q9UJQ4, residues 1-1053)
UniProt Q9UJQ4, sequence (whole entry, looked up): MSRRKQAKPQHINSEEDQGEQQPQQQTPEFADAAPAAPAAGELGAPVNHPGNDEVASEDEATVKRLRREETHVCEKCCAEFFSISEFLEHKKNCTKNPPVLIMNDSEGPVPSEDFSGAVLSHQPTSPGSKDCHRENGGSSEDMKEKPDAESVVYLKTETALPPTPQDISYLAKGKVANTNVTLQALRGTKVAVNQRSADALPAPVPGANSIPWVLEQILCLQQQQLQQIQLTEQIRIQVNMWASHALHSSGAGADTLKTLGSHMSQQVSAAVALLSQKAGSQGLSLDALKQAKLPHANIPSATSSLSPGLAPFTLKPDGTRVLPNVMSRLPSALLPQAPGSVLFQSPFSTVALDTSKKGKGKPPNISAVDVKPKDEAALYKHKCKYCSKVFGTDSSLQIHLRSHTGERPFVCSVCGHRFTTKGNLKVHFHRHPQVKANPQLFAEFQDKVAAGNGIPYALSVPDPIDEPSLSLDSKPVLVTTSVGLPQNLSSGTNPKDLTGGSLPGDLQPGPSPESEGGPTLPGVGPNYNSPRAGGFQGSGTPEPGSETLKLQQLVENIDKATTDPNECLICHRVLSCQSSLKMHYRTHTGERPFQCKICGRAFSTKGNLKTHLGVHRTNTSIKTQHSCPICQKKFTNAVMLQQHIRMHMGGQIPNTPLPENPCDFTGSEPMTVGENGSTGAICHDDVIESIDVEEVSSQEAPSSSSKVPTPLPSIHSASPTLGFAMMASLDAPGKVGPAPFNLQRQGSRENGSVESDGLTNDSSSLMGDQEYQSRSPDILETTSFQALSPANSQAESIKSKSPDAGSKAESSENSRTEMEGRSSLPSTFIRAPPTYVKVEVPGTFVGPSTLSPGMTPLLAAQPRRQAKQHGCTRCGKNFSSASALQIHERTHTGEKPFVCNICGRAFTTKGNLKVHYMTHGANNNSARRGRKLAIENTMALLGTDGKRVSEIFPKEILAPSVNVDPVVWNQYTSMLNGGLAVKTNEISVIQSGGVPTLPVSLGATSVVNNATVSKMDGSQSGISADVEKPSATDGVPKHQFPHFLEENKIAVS
Technique: universal PBM
Form: double-stranded DNA, one strand shown
Medium: in vitro
Tested at: 600 nM
Notes: 8-mer, flanks averaged, mean of replicates
Direction: higher = stronger binding
With `GCGAGTCC` the E-score was -0.201.
With `AGCTCAAG` the E-score was -0.122.
With `CCTAACCC` the E-score was -0.272.
`CTCGACAC` has an E-score of -0.141.
With `GGGCCGCA` the E-score was -0.291.
The E-score of `CGGAATCA` is reported as 0.0318.
The E-score of `TGCTACCA` is reported as -0.0728.
The E-score of `AGCCGAAC` is reported as -0.213.
`CCCATGGC` has an E-score of -0.333.
The E-score of `CTTCTATC` is reported as 0.00749.
`CAGCGGGC` gave an E-score of -0.225.
`ACTTTTCT` gave an E-score of 0.115.
`CGTGTCTA` gave an E-score of -0.0215.
The E-score of `ACGCTCAG` is reported as -0.16.
The E-score of `TACGGCGA` is reported as -0.138.
For `CACTTCTG`, the E-score was -0.15.
The E-score of `AGGCCAGA` is reported as -0.139.
With `AATGTTCC` the E-score was 0.0485.
`GACCATAA` has an E-score of 0.181.
With `CTGTGCAC` the E-score was -0.146.
For `ATCTCGCC`, the E-score was -0.298.

Block 2
Target: RNA binding protein fox-1 homolog 2, RRM domain, GST-SBP tag (RBFOX2, Homo sapiens, UniProt O43251-10, residues 100-194)
Technique: RNA Bind-n-Seq
Form: RNA
Medium: in vitro
Tested at: 365 nM
Notes: natural RNA segment, single round, ends assumed
Baseline: no-protein control
Direction: higher = stronger binding
Target sequence (chain): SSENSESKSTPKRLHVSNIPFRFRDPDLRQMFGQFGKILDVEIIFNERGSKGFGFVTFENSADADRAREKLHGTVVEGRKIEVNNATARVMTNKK
For `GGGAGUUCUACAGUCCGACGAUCAGUCCAGGACUGGGUCUGACCUGGUGGGAGCACCUGCCAGAGGAUGCUCUUUCCCAGGACGGAUGGGCCCUAUGUCUCAGGAGUGGGGUUGGGGGACAGCCUUCAGCAGCUGGAAUUCUCGGGUGCCAA`, “RBNS enrichment (R)” read 0.227.
Under “RBNS enrichment (R)”, `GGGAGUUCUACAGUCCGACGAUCAGUGUGUACUCACCUAAUCACUUGUUAUCCAGUGCCUGUUCUAGGUUUAUGGACUUAACUAUUUCUGUGAUGUUUCAUUUUUAGCCAUGUUAACUCCUAACACAUAUUCUUGGAAUUCUCGGGUGCCAA` is recorded as 0.242.
`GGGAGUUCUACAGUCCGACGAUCAACUCCAAGUGAUAGUGAGACCCAUCUCUCCUCUACCUUGAAGAGAGCAGAUCAUAGUAUAUGAGAUAGGAAUUCCCAUCCUAUUUGAGUUGAACUCUCUUCUGUACCUCUGGAAUUCUCGGGUGCCAA` — result for “RBNS enrichment (R)”: 0.328.
`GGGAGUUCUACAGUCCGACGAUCUGGAGGGAAGGAUUUGGCAAAGGUGCAUGUGUUUGGGCAGGAAAAGGCCAAGUGAAAUCUAUGCCCUACGGGAGCCAUUCCCAAUCCUGAGUUUCUCAGACUUGGCAAUGUGGAAUUCUCGGGUGCCAA` — result for “RBNS enrichment (R)”: 5.65.
For `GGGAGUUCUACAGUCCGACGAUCCAGCCUAGGAGAUGCCACACAUGCACAUGUCUGUUGCUUCUGUUGGCCUGAACCUACAACUGCCAAAGAACCCAGCAACAAACCUCCCAGCUUGGAGCUUUAGUUUUUUUUGGAAUUCUCGGGUGCCAA`, “RBNS enrichment (R)” read 0.329.
`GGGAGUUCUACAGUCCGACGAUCUGAAGGGUGAGCAUAACCUUGUGAACCAGCACUAGCUUGUUCCAAGCUGGAAUUUAUCUAAUCUAUUUUUGUGUUUAAAAAAGCUGUACCUACCAAAUAAAUAAAUAGUUUGGAAUUCUCGGGUGCCAA`: “RBNS enrichment (R)” 0.366.
For `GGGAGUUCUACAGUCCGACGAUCCACUUAGGUGUAGAGCCCCACAGAUGGACAUGUGAGGGAAUUCUUGGGGUGACAUAAACUAGAUAAAGGGCCUUUCUUGGAGAACUAGGCUUAAGGAAUAUCCCUGUCUUUGGAAUUCUCGGGUGCCAA`, “RBNS enrichment (R)” read 0.551.
`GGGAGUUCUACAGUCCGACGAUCUGUCUGCCGAGUCGUCUGUGUAAAAGCCUGUGCUUAGUCUUCUCUGGAAAGAACUGAGGCCAGACGAUUUCUGUGUUUGUCUCUUUGGCUUUUGUGUUAUAAGGAGGCAGUGGAAUUCUCGGGUGCCAA` — result for “RBNS enrichment (R)”: 2.07.
`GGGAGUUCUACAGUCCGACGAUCUAACCAUGGGAUUCAGAAGAGCACUAACCAGUGCAGCAUAGAAAUAGGAAUAGCGUAGGAAUAGAAAUUUGCCCAAGACUUUGAUAGUCAUCUGGUUUCAGUUCAGCAAGUGGAAUUCUCGGGUGCCAA` — result for “RBNS enrichment (R)”: 0.566.

Block 3
Target: RING finger protein unkempt homolog, zinc fingers 1-6, GST-SBP tag (UNK, Homo sapiens, UniProt Q9C0B0, residues 30-357)
Technique: RNA Bind-n-Seq
Form: RNA
Medium: in vitro
Tested at: not given
Notes: RNA with constant flanks, human-mouse chimeric sites, ends assumed
Baseline: input RNA pool
Direction: higher = stronger binding
Target sequence (chain): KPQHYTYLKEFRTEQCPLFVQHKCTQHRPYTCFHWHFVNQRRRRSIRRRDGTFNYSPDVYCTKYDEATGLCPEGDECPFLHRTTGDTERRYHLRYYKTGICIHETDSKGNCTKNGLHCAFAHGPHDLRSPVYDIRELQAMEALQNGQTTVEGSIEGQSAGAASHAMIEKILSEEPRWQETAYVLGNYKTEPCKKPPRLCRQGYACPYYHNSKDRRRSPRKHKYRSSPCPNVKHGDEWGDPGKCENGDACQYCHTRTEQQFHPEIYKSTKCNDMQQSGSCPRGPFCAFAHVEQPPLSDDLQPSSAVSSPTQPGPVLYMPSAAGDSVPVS
For `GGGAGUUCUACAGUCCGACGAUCGCUCUUGGCAAUGUAAUCAGCGCCUUGGGGGACAAGAGCAAGAGAGCCACCCAUGUCCCUUACAGAGACUCUAAGCUGACAAGACUCUUGCAGGAUUCCCUUGGGGGUAAUAGCCAAACCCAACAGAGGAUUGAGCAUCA`, the bound/input enrichment was 0.172 ratio.
With `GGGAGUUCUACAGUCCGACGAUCAUCAAGUACUUUGGGGACAUCAUUAGUGUGGGACAGAGACUGUUGCAAGGAGCUCGGAUUUUAGGAAUUCCAGUUAUCAUAACGGAACAAUACCCCAAAGGACUUGGCAGCACCGUUCAACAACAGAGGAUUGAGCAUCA` the bound/input enrichment was 0.362 ratio.
`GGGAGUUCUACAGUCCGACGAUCCAGACUGUGUCAUACUUUUUAGACAUUCACAUCAGACGCCUUACUACCCUGGCCACAUUCUAGGUUUGUGUUAUUUCUCAGCUAUGGAUAUGAUCAAAUGAGAACACUGCUUAACUAAUGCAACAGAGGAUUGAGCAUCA` gave a bound/input enrichment of 0.951 ratio.
The bound/input enrichment of `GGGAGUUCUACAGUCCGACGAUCUUUCUACUGCAGCAAACGAUGCUAAGAAUUAAGGAUCCUAAGAAGUCCCUGGAUUUUUAUACGAGGGUUCUUGGAAUGACCCUCCUGCAGAAGCUUGACUUCCCUGCUAUGAAGUUUUCGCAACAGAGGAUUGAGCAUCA` is reported as 0.107 ratio.
For `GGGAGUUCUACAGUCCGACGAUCUUACCCGAGAACGAGGAUGAAUUGGAGAGCACCAACAGGCGCUACACCAAGAGGGACUGCAGCACUUUCCUCAGAACUAGUGAGACGGGCAUUGUGGACCAGGUCAUGGUCACUCUCAACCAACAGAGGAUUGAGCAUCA`, the bound/input enrichment was 0.207 ratio.
The bound/input enrichment of `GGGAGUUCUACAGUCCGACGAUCAAAGAAAAUGGAGAAGUAAAGAUUUUGCUGAAAAGUGGGAAGGAGAAACCAAAAACAAAUAUAGAAGACUUACAAAUUAAAAAAGUAAAGAAGAAAAAGAAAAAGAAACACAAAGAGAAUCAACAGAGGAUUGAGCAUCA` is reported as 15.7 ratio.
The bound/input enrichment of `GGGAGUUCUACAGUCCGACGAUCGGGGAGAAACCUUACGAGUGUGUGCAGUGUGGGAAAUCCUACAGUCAAAGCUCAAAUCUCUUCAGACAUCAGAGACGACACAAUGCAGAAAAACUUUUGAAUGUUGUGAAAGUUUAAGAACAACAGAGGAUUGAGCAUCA` is reported as 0.0869 ratio.
For `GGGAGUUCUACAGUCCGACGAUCUGACAAGGGCACUGCAGAGCCAUGCCUUUCCUUGACAUACAGAAAAAGCUGGGCAUCAACAUAGAUCGGCACUUUAUAAUCCAGAGUGCAGAACAGCCCUAUAAGAACGCCGCUCGGUGCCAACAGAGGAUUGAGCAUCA`, the bound/input enrichment was 0.0921 ratio.

Block 4
Target: Histone acetyltransferase KAT6A, winged helix 1, GST fusion (KAT6A, Homo sapiens, UniProt Q92794, residues 1-85)
Technique: protein binding microarray
Form: double-stranded DNA, one strand shown
Medium: in vitro
Tested at: not given
Notes: 8-mer, flanks averaged, mean of 2 arrays, mostly near background
Baseline: not given
Direction: higher = stronger binding
Target sequence (chain): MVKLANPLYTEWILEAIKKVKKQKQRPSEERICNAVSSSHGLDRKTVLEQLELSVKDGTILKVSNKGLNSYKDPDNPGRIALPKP
With `GGGACTAA` the E-score was -0.0712.
The E-score of `GCTCTAGA` is reported as -0.0168.
The E-score of `GGGGGACC` is reported as 0.0506.
`TGAGGAAA` gave an E-score of -0.126.
For `ATAGCTGA`, the E-score was -0.102.
For `CGCATATC`, the E-score was 0.204.
`ATAACCCC` gave an E-score of -0.0699.
`ATCTACCG` gave an E-score of 0.119.
`AGGTCGAG` gave an E-score of -0.119.
The E-score of `AGCTTTAA` is reported as -0.104.
`CGATATAA` has an E-score of -0.0953.
For `CGAATTCG`, the E-score was 0.146.
`AAATCACA` has an E-score of -0.227.
`CGACAGCG` gave an E-score of 0.33.
`ATTCTATC` gave an E-score of -0.196.
`CCTCCCGA` gave an E-score of 0.0937.
`CACTAGGA` gave an E-score of -0.0417.
For `AATTTGCT`, the E-score was -0.167.

A few entries again (block 1):
The E-score of `CTTCTATC` is reported as 0.00749.
`CGTGTCTA` gave an E-score of -0.0215.
The E-score of `AGGCCAGA` is reported as -0.139.
With `CCTAACCC` the E-score was -0.272.
`CAGCGGGC` gave an E-score of -0.225.
With `AGCTCAAG` the E-score was -0.122.
The E-score of `AGCCGAAC` is reported as -0.213.
